{"data": "Assay results of several laboratories", "note": "Compare with care: the assays were run in different laboratories. ± marks the error that the study gave."}
{"SMILES": "CSc1cc(C)nc(SC)c1NC(=O)CN1CCN(CCSc2nc3ccccc3[nH]2)CC1.Cl", "species": "mouse", "sample": "cerebrum", "route": "intranasal", "dose": "10 µL in 0.01 N HCl daily", "time": "120 min", "setting": "7 days dosing", "concentration": "not detected"}
{"SMILES": "O=C(N[C@H](Cc1c[nH]c2ccccc12)C(=O)Nc1ccncc1)c1ccc(N2CCN(c3ccc(F)cc3F)CC2)cc1F", "species": "Swiss Webster mouse, female", "sample": "plasma", "route": "oral", "dose": "50 mg/kg", "time": "2 h", "setting": "20% HPβCD vehicle", "concentration": "0.01 µM"}
{"SMILES": "CN(C)C(=O)c1cc2cnc(Nc3ccc(-c4ccc5c(=O)cc(N6CCOCC6)oc5c4)cc3)nc2n1C1CCCC1", "species": "BALB/c mouse", "sample": "kidney", "route": "oral", "dose": "20 mg/kg", "time": "2 h", "concentration": "2340 ± 1830 ng/g"}
{"SMILES": "CC(C)(C)c1cc(NC(=O)Nc2ccc(Oc3ccnc4[nH]c(=O)cnc34)cc2F)n(-c2ccccc2)n1", "species": "nude mouse (female)", "sample": "plasma", "route": "oral", "dose": "20 mg/kg", "time": "1 h after last dose", "setting": "end of therapy", "concentration": "53.1 µM"}
{"SMILES": "Cn1cc([C@H]2C[C@H]3CSC(N)=N[C@@]3(c3ccc(F)cc3F)CO2)cn1", "species": "mouse 129/SVE male", "sample": "brain", "route": "subcutaneous", "dose": "3 mg/kg", "time": "3 h", "concentration": "0.213 µM"}
{"SMILES": "CN1CCCC1CCNS(=O)(=O)c1ccc2c(c1)CN(CC1CCCCC1)CC2 (stereo not shown)", "species": "THY-Tau22 mouse", "sample": "plasma", "route": "oral in diet", "dose": "0.02% in diet", "time": "6 months", "setting": "sampled at 8 p.m.", "concentration": "56.2 ng/mL"}
{"SMILES": "O=S(=O)(c1ccc(-c2ccc3nccc(Nc4ccncn4)c3c2)cc1)N1CCOCC1", "species": "female BALB/c mouse", "sample": "plasma", "route": "intraperitoneal", "dose": "10 mg/kg", "time": "0.25 h", "concentration": "3560 ng/mL"}
{"SMILES": "COc1ccc2c3c([nH]c2c1)[C@H](CC(C)C)N1C(=O)[C@H](CC(=O)NC(C)C)NC(=O)[C@@H]1C3", "species": "wild-type mouse, male", "sample": "serum", "route": "oral", "dose": "100 mg/kg", "time": "1 h", "concentration": "33.1 µM"}
{"SMILES": "CSc1cc(Oc2ccnc3[nH]c(=O)cnc23)ccc1NC(=O)Nc1cc(C(C)(C)C)nn1-c1ccccc1", "species": "NSG mouse (female)", "sample": "tumor", "route": "oral", "dose": "20 mg/kg", "time": "1 h after last dose", "setting": "end of therapy", "concentration": "10 µM"}
{"SMILES": "O=C(N[C@H](Cc1c[nH]c2ccccc12)C(=O)Nc1ccncc1)c1ccc(-c2ccc(F)c(Cl)c2)cc1F", "species": "Swiss Webster mouse, female", "sample": "plasma", "route": "oral", "dose": "50 mg/kg", "time": "8 h", "setting": "20% Kolliphor vehicle", "concentration": "7.7 µM"}
{"note": "Excerpt of the above:"}
{"SMILES": "COc1ccc2c3c([nH]c2c1)[C@H](CC(C)C)N1C(=O)[C@H](CC(=O)NC(C)C)NC(=O)[C@@H]1C3", "species": "wild-type mouse, male", "sample": "serum", "route": "oral", "dose": "100 mg/kg", "time": "1 h", "concentration": "33.1 µM"}
